Results collected from several papers.
Each numbered part is a random draw from the data of one study; scales do not carry over between parts.

Series 1
Organism: SARS-CoV-2
Effect on: cytopathic effect
Cells: Vero E6
Tested at: 10 µM
SMILES	inhibition [%]
COc1ccc2[n-]c([S@@+]([O-])Cc3ncc(C)c(OC)c3C)nc2c1.COc1ccc2[n-]c([S@@+]([O-])Cc3ncc(C)c(OC)c3C)nc2c1.O.O.O.[Mg+2]	-3.3
Nc1nc(-c2ccc(Cl)c(Cl)c2)c(-c2ccncc2)s1	-0.9
O=C(O)c1cc(O)c2c(c1)[C@H]([C@H]1c3cc(C(=O)O)cc(O)c3C(=O)c3c(O[C@@H]4O[C@H](CO)[C@@H](O)[C@H](O)[C@H]4O)cccc31)c1cccc(O[C@@H]3O[C@H](CO)[C@@H](O)[C@H](O)[C@H]3O)c1C2=O	3.3
c1ccc2sc(SN3CCOCC3)nc2c1	1.9
CC(=O)[O][Hg][c]1ccccc1	-44

Series 2
Target: Centromere-binding protein 1, full length, His-tagged (CBF1, Saccharomyces cerevisiae, UniProt P17106, residues 1-351)
UniProt P17106, sequence (whole entry, looked up): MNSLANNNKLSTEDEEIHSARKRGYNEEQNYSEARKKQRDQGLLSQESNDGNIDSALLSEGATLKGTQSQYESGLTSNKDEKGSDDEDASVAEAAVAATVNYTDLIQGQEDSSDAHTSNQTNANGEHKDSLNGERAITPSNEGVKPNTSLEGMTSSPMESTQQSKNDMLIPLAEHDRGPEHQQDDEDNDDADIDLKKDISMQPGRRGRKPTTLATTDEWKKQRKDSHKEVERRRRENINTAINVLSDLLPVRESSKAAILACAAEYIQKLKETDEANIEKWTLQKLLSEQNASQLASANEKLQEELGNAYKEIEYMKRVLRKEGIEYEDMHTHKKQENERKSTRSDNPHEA
Technique: competition protein-binding microarray
Molecule type: double-stranded DNA, one strand shown
Medium: in vitro
Tested at: 2 µM
Notes: whole 60-bp probe, lowest competitor level
With: Pho4 competitor, 0.05 µM
Direction: higher = stronger binding
Constant ends, left off below: … GTCTTGATTCGCTTGACGCTGCTG
Strand	fluorescence intensity
CATACCCAACCTTGGGCAGTGGGTGAAGATATTTGT	61.1 a.u.
AAGCTCAATTCGAGTCACGTGGGTAGAAATATTACA	13900 a.u.
TGCGCAACAACTTGTTCGGTGGGTGTATGTCTAGAA	65.4 a.u.
CTTCTGTAAATTTGTCACTTCACTTGACGCGCCCCG	95.6 a.u.
CTAATTCAGCACCAACACGTGAGATCCAACTAATAA	1170 a.u.
ATATATATATGCGGCTGCGTGCGGATATTCTCCCGG	124 a.u.
AGACAAAGTTTGGTGGGCGTGGGACGAAGAATTCAG	67.5 a.u.
AGCCACATCAACTGTCACATGTATGGAAAACTCGCA	626 a.u.

Series 3
Cell line: HEK-293T
Effect on: pseudovirus infection
Technique: FDA-approved drug library screen
Organism: VSV pseudotyped with SARS-CoV-2 spike
Tested at: 10 µM
Time: 16 h
Relative to: vehicle-treated
Compound	GFP-positive cells [%]
CN(C)CCC(c1ccc(Cl)cc1)c1ccccn1 (stereo not shown)	74.8
CCN[C@H]1CN(CCCOC)S(=O)(=O)c2sc(S(N)(=O)=O)cc21	98.7
C[C@]12CCC(=O)C=C1CC[C@@H]1[C@@H]2CC[C@@]2(C)[C@H]1CC[C@]2(C)O	76.3
COc1ccc(C(=O)CC(=O)c2ccc(C(C)(C)C)cc2)cc1	82.9

Series 4
Target: Replicase polyprotein 1ab, polymerase (rep, Severe acute respiratory syndrome coronavirus 2, UniProt P0DTD1)
Effect on: enzyme activity
Action: inhibitor
Tested at: 20 µM
SMILES	inhibition [%]
O=C(Nc1ccc(F)cc1)N1CCc2ccccc2C1c1ccc(C(F)(F)F)cc1 (stereo not shown)	-2.64
CNC(=O)c1cc(Oc2ccc(NC(=O)Nc3ccc(Cl)c(C(F)(F)F)c3)cc2)ccn1	2.63
COc1ccc(-c2csc(NC(=O)[C@H]3CCCCN3S(=O)(=O)c3ccc(C)cc3)n2)cc1	0.53
COc1ccc(/C=C/CCCCOc2ccc(C(=O)c3cccc(C(=O)O)c3)cc2CCC(=O)O)cc1	5.85
CC1(C)CCC(C)(C)c2cc(C#Cc3ccc(C(=O)O)cc3)ccc21	31.2
Nc1nc2c(c(=O)[nH]1)C[C@@H](CCc1ccc(C(=O)N[C@@H](CCC(=O)O)C(=O)O)cc1)CN2	5.56
CCN(Cc1ccc(Cl)nc1)/C(=C/[N+](=O)[O-])NC	-6.08
CCN1C[C@]2(COC(=O)c3ccccc3N3C(=O)C[C@H](C)C3=O)CC[C@H](OC)[C@@]34[C@@H]5C[C@H]6[C@H](OC)[C@@H]5[C@](O)(C[C@@H]6OC)[C@@](O)([C@@H](OC)[C@H]23)[C@@H]14	-3.24
CCOc1ccn(-c2ccc(F)cc2)c(=O)c1C(=O)Nc1ccc(Oc2ccnc(N)c2Cl)c(F)c1	0.52
O=C(NCc1ccccc1)c1csc(Nc2ccncn2)n1	-2.44
O=C(O)c1cc(=O)c2c(OCC(O)COc3cccc4oc(C(=O)O)cc(=O)c34)cccc2o1	7.15
N[C@@H]1[C@H]2CN(c3nc4c(cc3F)c(=O)c(C(=O)O)cn4-c3ccc(F)cc3F)C[C@@H]12	4.2
CC(C)C[C@H](NC(=O)CNC(=O)c1cc(Cl)ccc1Cl)B1OC(=O)C(CC(=O)O)(CC(=O)O)O1	3.5
COC(=O)N/N=C/c1c[n+]([O-])c2ccccc2[n+]1[O-]	-10.7
CC(C)(O)C(=O)Nc1ccc([N+](=O)[O-])c(C(F)(F)F)c1	-1.27
C[C@H]1[C@H](C)CC[C@]2(C(=O)O)CC[C@]3(C)C(=CC[C@@H]4[C@@]5(C)C[C@@H](O)[C@H](O)[C@@](C)(CO)[C@@H]5CC[C@]43C)[C@H]12	-4.44
C[C@H]1C[C@@H]2[C@H]([C@@H](O)C[C@@]3(C)[C@H]2CC[C@]3(O)C(=O)COC(=O)CCC(=O)O)[C@@]2(C)C=CC(=O)C=C12	-2.85

Repeated from above (series 4):
SMILES	inhibition [%]
CC(C)C[C@H](NC(=O)CNC(=O)c1cc(Cl)ccc1Cl)B1OC(=O)C(CC(=O)O)(CC(=O)O)O1	3.5
C[C@H]1[C@H](C)CC[C@]2(C(=O)O)CC[C@]3(C)C(=CC[C@@H]4[C@@]5(C)C[C@@H](O)[C@H](O)[C@@](C)(CO)[C@@H]5CC[C@]43C)[C@H]12	-4.44
